# Assay results pooled from the literature.
# Numbered parts are unrelated; each lists some results of a single study.
# Sequence of UniProt Q9UBS0 (whole entry, looked up): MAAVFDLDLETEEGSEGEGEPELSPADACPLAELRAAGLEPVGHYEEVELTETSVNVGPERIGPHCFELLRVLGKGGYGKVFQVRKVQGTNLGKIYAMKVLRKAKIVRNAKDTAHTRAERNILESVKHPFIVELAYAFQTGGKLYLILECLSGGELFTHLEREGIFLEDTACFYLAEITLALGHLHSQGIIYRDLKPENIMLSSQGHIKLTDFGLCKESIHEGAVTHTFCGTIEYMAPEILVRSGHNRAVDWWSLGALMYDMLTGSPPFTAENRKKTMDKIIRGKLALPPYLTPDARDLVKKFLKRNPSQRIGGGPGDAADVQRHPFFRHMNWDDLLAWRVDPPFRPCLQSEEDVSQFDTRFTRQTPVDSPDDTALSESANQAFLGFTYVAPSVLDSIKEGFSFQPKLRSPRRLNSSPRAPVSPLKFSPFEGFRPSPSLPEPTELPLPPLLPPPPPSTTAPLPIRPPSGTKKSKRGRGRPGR
# Sequence of UniProt P31749 (whole entry, looked up): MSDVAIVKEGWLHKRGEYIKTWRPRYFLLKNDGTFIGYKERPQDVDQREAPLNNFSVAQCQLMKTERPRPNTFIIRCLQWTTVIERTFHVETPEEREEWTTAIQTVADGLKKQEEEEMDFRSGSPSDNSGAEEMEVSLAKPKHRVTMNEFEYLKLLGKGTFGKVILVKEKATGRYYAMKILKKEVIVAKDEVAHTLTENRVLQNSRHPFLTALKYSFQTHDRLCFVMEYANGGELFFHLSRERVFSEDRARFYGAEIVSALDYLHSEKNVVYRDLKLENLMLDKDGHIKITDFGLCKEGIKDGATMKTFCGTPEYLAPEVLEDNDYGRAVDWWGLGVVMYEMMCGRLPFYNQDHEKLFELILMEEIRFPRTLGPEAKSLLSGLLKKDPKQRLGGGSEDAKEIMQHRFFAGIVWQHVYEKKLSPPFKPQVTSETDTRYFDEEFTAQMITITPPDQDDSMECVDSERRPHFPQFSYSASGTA
# Sequence of UniProt O14965 (whole entry, looked up): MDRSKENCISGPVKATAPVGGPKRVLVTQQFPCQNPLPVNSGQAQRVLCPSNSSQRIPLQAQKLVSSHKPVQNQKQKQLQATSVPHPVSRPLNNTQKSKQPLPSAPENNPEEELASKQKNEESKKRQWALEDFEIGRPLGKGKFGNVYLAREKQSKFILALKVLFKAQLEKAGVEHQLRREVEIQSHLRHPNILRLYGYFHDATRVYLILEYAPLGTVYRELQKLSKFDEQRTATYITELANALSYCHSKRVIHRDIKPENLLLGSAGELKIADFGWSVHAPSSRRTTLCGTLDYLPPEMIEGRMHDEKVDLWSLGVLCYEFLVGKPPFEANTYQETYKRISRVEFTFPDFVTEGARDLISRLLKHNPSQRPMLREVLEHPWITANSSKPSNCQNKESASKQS
# Sequence of UniProt P62344 (whole entry, looked up): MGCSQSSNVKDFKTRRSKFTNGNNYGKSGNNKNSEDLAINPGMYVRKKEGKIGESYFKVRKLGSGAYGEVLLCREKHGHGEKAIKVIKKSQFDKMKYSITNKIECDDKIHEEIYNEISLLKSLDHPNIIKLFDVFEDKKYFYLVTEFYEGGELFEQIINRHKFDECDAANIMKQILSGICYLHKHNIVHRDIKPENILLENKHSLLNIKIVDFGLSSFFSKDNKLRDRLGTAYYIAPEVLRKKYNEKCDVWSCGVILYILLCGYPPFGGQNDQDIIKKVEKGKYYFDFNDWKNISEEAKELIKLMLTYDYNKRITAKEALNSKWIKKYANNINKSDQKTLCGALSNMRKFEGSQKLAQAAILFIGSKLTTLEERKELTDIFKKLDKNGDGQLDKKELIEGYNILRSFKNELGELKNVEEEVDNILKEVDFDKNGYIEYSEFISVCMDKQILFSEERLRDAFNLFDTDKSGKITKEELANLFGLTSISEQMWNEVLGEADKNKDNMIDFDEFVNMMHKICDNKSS
# Sequence of UniProt P25098 (whole entry, looked up): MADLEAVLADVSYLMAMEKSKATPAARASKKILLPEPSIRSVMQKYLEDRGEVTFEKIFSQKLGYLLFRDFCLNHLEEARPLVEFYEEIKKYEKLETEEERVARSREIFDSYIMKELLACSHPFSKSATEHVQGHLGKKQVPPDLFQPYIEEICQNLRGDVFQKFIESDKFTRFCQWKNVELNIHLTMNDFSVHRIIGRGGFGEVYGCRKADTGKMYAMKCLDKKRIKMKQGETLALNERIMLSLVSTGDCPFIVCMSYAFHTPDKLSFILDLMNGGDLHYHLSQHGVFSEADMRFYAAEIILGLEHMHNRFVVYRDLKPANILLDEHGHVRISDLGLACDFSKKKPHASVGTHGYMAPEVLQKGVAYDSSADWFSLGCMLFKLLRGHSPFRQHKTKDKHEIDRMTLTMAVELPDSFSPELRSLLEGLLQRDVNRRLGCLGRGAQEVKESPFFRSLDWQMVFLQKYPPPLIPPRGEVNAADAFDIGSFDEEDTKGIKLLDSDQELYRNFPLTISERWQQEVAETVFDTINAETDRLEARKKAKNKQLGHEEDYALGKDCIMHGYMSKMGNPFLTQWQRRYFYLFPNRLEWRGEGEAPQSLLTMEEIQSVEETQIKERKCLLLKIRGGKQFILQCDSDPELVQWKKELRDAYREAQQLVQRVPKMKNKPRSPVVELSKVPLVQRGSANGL
# Sequence of UniProt Q9Y3S1 (whole entry, looked up): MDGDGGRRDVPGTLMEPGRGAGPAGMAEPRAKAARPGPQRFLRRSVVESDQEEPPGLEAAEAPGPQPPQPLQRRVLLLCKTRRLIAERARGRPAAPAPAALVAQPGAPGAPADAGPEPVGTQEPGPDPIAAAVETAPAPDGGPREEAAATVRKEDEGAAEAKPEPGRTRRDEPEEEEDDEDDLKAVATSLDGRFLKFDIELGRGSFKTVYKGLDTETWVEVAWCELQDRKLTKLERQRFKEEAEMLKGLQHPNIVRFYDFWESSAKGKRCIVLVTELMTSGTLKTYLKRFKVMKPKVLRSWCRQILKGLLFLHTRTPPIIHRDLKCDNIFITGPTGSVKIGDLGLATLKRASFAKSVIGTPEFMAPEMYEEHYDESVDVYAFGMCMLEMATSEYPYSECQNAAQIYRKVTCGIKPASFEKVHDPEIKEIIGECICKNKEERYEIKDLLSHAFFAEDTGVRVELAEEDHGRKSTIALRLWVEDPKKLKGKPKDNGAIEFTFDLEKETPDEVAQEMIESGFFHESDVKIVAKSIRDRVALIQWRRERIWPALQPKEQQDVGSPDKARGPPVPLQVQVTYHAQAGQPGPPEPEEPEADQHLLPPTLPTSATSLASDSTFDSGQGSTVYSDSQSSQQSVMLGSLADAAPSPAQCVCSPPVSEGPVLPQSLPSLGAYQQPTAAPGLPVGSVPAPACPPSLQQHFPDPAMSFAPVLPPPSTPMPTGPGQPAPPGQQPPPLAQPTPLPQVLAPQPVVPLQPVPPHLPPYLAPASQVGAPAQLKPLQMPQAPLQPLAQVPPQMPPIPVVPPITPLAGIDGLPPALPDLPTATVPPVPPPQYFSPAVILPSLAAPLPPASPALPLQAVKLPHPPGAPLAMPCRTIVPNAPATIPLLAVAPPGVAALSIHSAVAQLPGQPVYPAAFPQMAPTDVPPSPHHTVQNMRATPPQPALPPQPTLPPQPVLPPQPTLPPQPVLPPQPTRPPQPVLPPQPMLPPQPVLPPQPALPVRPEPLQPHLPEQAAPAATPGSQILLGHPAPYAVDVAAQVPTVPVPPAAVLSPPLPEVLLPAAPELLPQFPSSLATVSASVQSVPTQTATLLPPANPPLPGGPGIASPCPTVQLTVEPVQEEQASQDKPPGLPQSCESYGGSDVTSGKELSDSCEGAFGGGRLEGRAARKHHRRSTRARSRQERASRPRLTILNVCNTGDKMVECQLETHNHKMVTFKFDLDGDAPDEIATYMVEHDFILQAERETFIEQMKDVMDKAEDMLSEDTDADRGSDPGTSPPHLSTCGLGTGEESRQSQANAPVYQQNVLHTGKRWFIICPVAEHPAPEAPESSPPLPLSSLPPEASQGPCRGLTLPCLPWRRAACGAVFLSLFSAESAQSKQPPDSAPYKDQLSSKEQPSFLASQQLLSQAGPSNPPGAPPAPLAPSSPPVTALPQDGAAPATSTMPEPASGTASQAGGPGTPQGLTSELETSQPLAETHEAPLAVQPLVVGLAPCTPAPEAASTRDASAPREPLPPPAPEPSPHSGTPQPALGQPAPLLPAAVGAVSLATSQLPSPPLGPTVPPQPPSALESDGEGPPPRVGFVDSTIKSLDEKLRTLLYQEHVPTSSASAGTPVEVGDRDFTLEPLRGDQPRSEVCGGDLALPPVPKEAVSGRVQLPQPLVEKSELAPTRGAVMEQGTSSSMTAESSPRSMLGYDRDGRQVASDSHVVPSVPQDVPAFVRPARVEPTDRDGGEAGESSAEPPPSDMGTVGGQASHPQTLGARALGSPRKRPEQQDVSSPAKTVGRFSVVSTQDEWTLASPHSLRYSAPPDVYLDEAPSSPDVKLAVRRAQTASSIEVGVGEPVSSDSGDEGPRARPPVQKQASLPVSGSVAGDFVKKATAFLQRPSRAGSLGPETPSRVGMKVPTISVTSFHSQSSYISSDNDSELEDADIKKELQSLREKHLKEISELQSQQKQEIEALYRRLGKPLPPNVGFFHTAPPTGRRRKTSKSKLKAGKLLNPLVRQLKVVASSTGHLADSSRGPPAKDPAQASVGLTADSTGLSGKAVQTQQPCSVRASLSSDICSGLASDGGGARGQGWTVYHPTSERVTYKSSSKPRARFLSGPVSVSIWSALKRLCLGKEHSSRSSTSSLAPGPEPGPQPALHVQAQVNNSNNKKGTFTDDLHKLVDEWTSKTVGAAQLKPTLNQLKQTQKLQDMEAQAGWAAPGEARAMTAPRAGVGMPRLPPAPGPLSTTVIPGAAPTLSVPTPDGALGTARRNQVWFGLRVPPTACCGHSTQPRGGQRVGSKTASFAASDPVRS

# Set 1
# SMILES: CC(C)(C)c1cc(C=C(C#N)C#N)cc(Br)c1O
# Effect on: enzyme activity
# Mode: inhibitor
# Concentration: 0.5 µM
target,how to read,remaining activity [%]
"WNK2 (Homo sapiens, UniProt Q9Y3S1)",,126
"GRK2 (Homo sapiens, UniProt P25098)",,83.7
"RPS6KB2 (Homo sapiens, UniProt Q9UBS0)",,102
"Aurora kinase A (AURKA, Homo sapiens, UniProt O14965)",reference: control,89.8
"Cyclin-dependent kinase 3, with cyclin E (CDK3, Homo sapiens, UniProt Q00526)",,98.9

# Single results of other studies
Compound,tested on,test,test system,setting,measurement,result
CN(C)C(=O)Cn1cc(-c2nc(C3(c4ccc(-c5cnc(N)nc5)cc4)CC3)no2)cn1,"CDPK1 (Plasmodium falciparum, UniProt P62344)","cell-free assay, competition with immobilised ligand",,1 µM,remaining binding,82%
CCOc1ccc(N2C(=O)N=C(O)C3(Cc4c(ccc5ccccc45)N(C)C3)C2=O)cc1 (stereo not shown),,,"mouse, microsomes or S9","2 µM, 0.5 h",remaining compound,27.4%
Cn1nc(C(=O)NCc2ccc(C(=O)O)cc2)cc1-c1ccc2[nH]ccc2c1,"CRK2 (Plasmodium falciparum, UniProt P61075)","cell-free assay, competition with immobilised ligand",,0.1 µM,remaining binding,74%
CCO[C@H]1O[C@@H]2O[C@@]3(C)CC[C@H]4[C@H](C)CC[C@@H]([C@H]1C)[C@@]24OO3,HaCaT,,,"100 µM, 60 h",viability,43.4%
Cc1cc(C)c(-n2ccn3nc(-c4cccnc4)cc23)cc1NC(=O)c1cc(C#N)cc(S(F)(F)(F)(F)F)c1,"AKT1 (Homo sapiens, UniProt P31749)","cell-free assay, competition with immobilised ligand",,0.1 µM,remaining binding,90.9%
